Measurements of several laboratories.
Protocols differ between the studies behind these lines.

Under “patients with diarrhea”, `COc1ccc([C@@H](O)c2cc(-c3ncnc4cc(N5CCOCC5)ccc34)c(F)cc2Cl)nn1` is recorded as 67% (locally advanced rectal cancer patients; 250 mg, drug-related adverse events, added: capecitabine and radiotherapy).
`Cc1cc(-c2nnc(N)nc2-c2ccc(F)cc2)cc(Cl)n1` — result for “patients with immune-mediated AE”: 0% (item: obliterative bronchiolitis; IO-naive mCRPC patients, male; oral, dose not given, treatment-related, grade 2).
`COc1cc(Nc2ncc3c(n2)-c2ccc(Cl)cc2C(c2c(F)cccc2OC)=NC3)ccc1C(=O)O`: “patients with febrile neutropenia” 8% (cancer patients; oral, dose not given, all grades any attribution, added: pembrolizumab).
For `C[C@@H](Nc1cc(F)cc(F)c1)c1cc(C(=O)N(C)C)cc2c(=O)cc(N3CCOCC3)oc12`, “patients discontinuing for AE” read 1.6% (item: Pneumonia; advanced solid tumour patients; oral, dose not given, dose finding).
`CCOc1c([C@H](C)n2nc(C)c3c(N)ncnc32)cc(Cl)c(F)c1[C@@H]1CNC(=O)C1`: “patients with high heart rate” 5.8% (item: heart rate > 100 bpm; previously treated B-cell malignancy; oral, dose not given, all doses).
Under “patients with adverse event”, `Cc1cc(NC2CCN(C(=O)OC3CCN(C(=O)/C=C/CN(C)C)C3)CC2)n2ncc(C(C)C)c2n1` (stereo not drawn) is recorded as 0% (Phase I dose escalation CTCAE v4.0, item: Hypotension; patients with advanced solid tumours; dose not given, TIW dosing any grade).
`O=C(Nc1nc2cccc(-c3ccc(CN4CCS(=O)(=O)CC4)cc3)n2n1)C1CC1`: “patients with Pharyngitis” 0% (rheumatoid arthritis patients; oral, 100 mg twice daily, 4 weeks, TEAE regardless of relatedness).
`FC(F)(F)c1ccc(CNc2ccc(Cc3c[nH]c4ncc(Cl)cc34)cn2)cn1`: “patients with treatment-related adverse event” 0% (item: gastroesophageal reflux disease; patients with TGCT; oral, 1000 mg/day, grade 3 or higher).
`NC(=O)N1c2ccccc2C=Cc2ccccc21`: “patients with Fatigue” 27% (male patients; oral, dose not given, treatment-related adverse events).
For `CNC(=O)c1ccc(-c2cnc3ncc(Cc4ccc5ncccc5c4)n3n2)cc1F`, “patients with adverse event” read 0% (item: Asthenia; other cancer patients; oral, 600 mg twice daily, expansion cohort, grade 3-4).
`CC(C)C[C@H](NC(=O)CNC(=O)c1cc(Cl)ccc1Cl)B(O)O`: “patients with adverse event” 0% (item: Hyponatraemia, all grades; newly diagnosed multiple myeloma patients; oral, dose not given, maintenance phase, new onset, cycle 17 or later).
`C=CC(=O)Nc1cc(Nc2nccc(-c3cn(C)c4ccccc34)n2)c(OC)cc1N(C)CCN(C)C` — result for “patients with treatment-related AEs”: 0% (item: Anemia grade ≥3; EGFR-mutant MET-altered NSCLC; oral, dose not given, study).

Excerpt of the above:
`CC(C)C[C@H](NC(=O)CNC(=O)c1cc(Cl)ccc1Cl)B(O)O`: “patients with adverse event” 0% (item: Hyponatraemia, all grades; newly diagnosed multiple myeloma patients; oral, dose not given, maintenance phase, new onset, cycle 17 or later).
